Experimental data gathered from unrelated publications.
Lines come from different studies, so protocols differ.
Target: Phosphatidylinositol 3-kinase catalytic subunit type 3 (PIK3C3, Homo sapiens, UniProt Q8NEB9)

For `Cc1cnc2nc1Nc1cccc(c1)COC/C=C/COCc1cc(ccc1OCCN1CCOCC1)N2`, the remaining binding was 75% (binding, competition with immobilised ligand; 0.1 µM).
With `COc1c(Cl)cccc1Nc1c(-c2ccncc2C#C[C@@]2(C)CCCN2C(=O)/C=C/CN(C)C)[nH]c2c1C(=O)NCC2` the remaining binding was 83% (cell-free assay, competition with immobilised ligand; 3 µM).
`Nc1ncc2c(n1)-c1c([nH]c3ccc(C4=CCOCC4)cc13)CCC2` has a remaining binding of 68% (binding, competition with immobilised ligand; 1 µM).
The remaining binding of `CC(C)=CC1OC(C)(C)C2C=C3C(=O)C(Cl)=CC(O)C3C3C(O)C4OC4C(=O)C132` (centres unmarked) is reported as 66% (cell-free assay, competition with immobilised ligand; 10 µM).
The remaining binding of `COc1cc(Nc2nccc(-c3cnn4nc(OC)ccc34)n2)cc(C(F)(F)F)c1` is reported as 100% (binding, competition with immobilised ligand; 1 µM).
`C=CC(=O)N1Cc2nc(-c3cc(-c4cc(Cl)cnc4Cl)c(F)cc3F)n(-c3ccncn3)c2C1` gave an inhibition of -2.2% (cell-free assay; 1 µM).
With `CNC(=O)C1CCN(c2cc(C)c(F)cc2NC(=O)c2ccc(-c3cc(O)ccc3C)c(C)c2)CC1` the remaining binding was 64% (binding, competition with immobilised ligand; 1 µM).
The remaining binding of `COc1cc(Nc2nc(C)cc(-c3cnn4nc(OC)ccc34)n2)cc(C(F)(F)F)c1` is reported as 100% (binding, competition with immobilised ligand; 1 µM).
`CN1CCN(Cc2ccc(-c3ccc(CO[C@H]4CCC[C@@H]4NC(=O)c4cc(-c5cnn(C)c5)cnc4N)cc3)cc2)CC1` gave an inhibition of -5% (enzyme activity, inhibitor; 0.1 µM).
`CCN1CCN(Cc2ccc(NC(=O)c3ccc(C)c(NC(=O)c4cncc(-c5cnn(C)c5)c4)c3)cc2C(F)(F)F)CC1` has a remaining binding of 100% (binding, competition with immobilised ligand; 1 µM).
`C=CC(=O)N1CCCC(n2c(=O)c3ncccc3n(Cc3ccc(Oc4ccccc4)cc3)c2=O)C1` (centres unmarked) gave a remaining binding of 88% (cell-free assay, competition with immobilised ligand; 1 µM).

A few entries again:
`C=CC(=O)N1Cc2nc(-c3cc(-c4cc(Cl)cnc4Cl)c(F)cc3F)n(-c3ccncn3)c2C1` gave an inhibition of -2.2% (cell-free assay; 1 µM).
